Assay results pooled from the literature.
Lines come from different studies, so protocols differ. Numbers after ± are the reported error.
Route: intravenous

N=C(N)NCCC[C@@H]1NC(=O)[C@H](CCCCNC(=O)CC[C@H](NC(=O)CC[C@H](NC(=O)CN2CCN(CC(=O)O)CCN(CC(=O)O)CCN(CC(=O)O)CC2)C(=O)N[C@@H](CCC(=O)NCCCC[C@@H]2NC(=O)[C@@H](Cc3ccccc3)NC(=O)[C@H](CC(=O)O)NC(=O)CNC(=O)[C@H](CCCNC(=N)N)NC2=O)C(=O)NCCCC[C@@H]2NC(=O)[C@@H](Cc3ccccc3)NC(=O)[C@H](CC(=O)O)NC(=O)CNC(=O)[C@H](CCCNC(=N)N)NC2=O)C(=O)NCCCC[C@@H]2NC(=O)[C@@H](Cc3ccccc3)NC(=O)[C@H](CC(=O)O)NC(=O)CNC(=O)[C@H](CCCNC(=N)N)NC2=O)NC(=O)[C@@H](Cc2ccccc2)NC(=O)[C@H](CC(=O)O)NC(=O)CNC1=O [indium-111 labelled]  tissue uptake (female athymic nu/nu mice, heart; 72 h): 1.01 ± 0.76 %ID/g
CC(C)C[C@@H](NC(=O)[C@@H](CCC(=O)O)NC(=O)[C@@H](CC(C)C)NC(=O)[C@@H](CC(C)C)NC(=O)[C@@H](CC(C)C)NC(=O)[C@H](NC(=O)[C@@H](CCC(=O)O)NC(=O)[C@H](NC(=O)[C@H]1CCCN1C(=O)[C@@H](Cc1ccccc1)NC(=O)[C@@H](CC(C)C)NC(=O)[C@@H](Cc1c[nH]c2ccccc12)NC(=O)[C@@H](CCC(=O)O)NC(=O)[C@@H](CC(C)C)NC(=O)[C@@H](Cc1ccc(O)cc1)NC(=O)[C@@H](CCCNC(=N)N)NC(=O)[C@@H](C)NC(=O)[C@@H](Cc1c[nH]c2ccccc12)NC(=O)[C@H]1CCCN1C(=O)[C@@H](CC(N)=O)NC(=O)[C@@H](CCC(N)=O)NC(=O)[C@@H](CCC(=O)O)NC(=O)[C@@H](CCC(=O)O)NC(=O)[C@@H](CS)NC(=O)[C@@H](C)NC(=S)Nc1ccc(CC2CN(CC(=O)O)CCN(CC(=O)O)CCN2CC(=O)O)cc1)[C@H](C)O)[C@H](C)O)C(=O)O (stereo partly drawn) [fluorine-18 labelled]  tissue uptake (BALB/c mice, female, 4T1 orthotopic tumour, small intestine; 4 h): 0.776 ± 0.196 %ID/g
CN1C(=O)[C@@H](Cc2ccc(O)cc2)NC(=O)CNC(=O)[C@H](Cc2ccc3ccccc3c2)NC(=O)[C@H](CCCNC(=N)N)NC(=O)[C@H]1CCCNC(=O)c1ccc(CNC(=O)CN2CCN(CC(=O)O)CCN(CC(=O)O)CCN(CC(=O)O)CC2)cc1 [gallium-68 labelled]  tissue uptake (SCID mice, lymphoma xenograft, kidneys; 1 h): 8.8 ± 0.9 %ID/g
N=C(N)NCCC[C@@H]1NC(=O)[C@H](CCCCNC(=O)CNC(=O)CNC(=O)CNC(=O)CC[C@H](NC(=O)CNC(=O)CNC(=O)CNC(=O)CC[C@H](NC(=O)CN2CCN(CC(=O)O)CCN(CC(=O)O)CCN(CC(=O)O)CC2)C(=O)NCC(=O)NCC(=O)NCC(=O)N[C@@H](CCC(=O)NCC(=O)NCC(=O)NCC(=O)NCCCC[C@@H]2NC(=O)[C@@H](Cc3ccccc3)NC(=O)[C@H](CC(=O)O)NC(=O)CNC(=O)[C@H](CCCNC(=N)N)NC2=O)C(=O)NCC(=O)NCC(=O)NCC(=O)NCCCC[C@@H]2NC(=O)[C@@H](Cc3ccccc3)NC(=O)[C@H](CC(=O)O)NC(=O)CNC(=O)[C@H](CCCNC(=N)N)NC2=O)C(=O)NCC(=O)NCC(=O)NCC(=O)NCCCC[C@@H]2NC(=O)[C@@H](Cc3ccccc3)NC(=O)[C@H](CC(=O)O)NC(=O)CNC(=O)[C@H](CCCNC(=N)N)NC2=O)NC(=O)[C@@H](Cc2ccccc2)NC(=O)[C@H](CC(=O)O)NC(=O)CNC1=O [indium-111 labelled]  tissue uptake (female athymic nu/nu mice, eyes; 0.5 h): 1.2 ± 0.6 %ID/g
CC(C)C[C@H](NC(=O)CN1CCN(CC(=O)O)CCN(CC(=O)O)CC1)C(=O)N[C@@H](CC(C)C)C(=O)N[C@@H](CC(C)C)C(=O)N[C@@H](CC(C)C)C(=O)N[C@@H](CCCNC(=N)N)C(=O)N[C@H](C(=O)N[C@@H](CCCCN)C(=O)N[C@@H](CCCNC(=N)N)C(N)=O)C(C)C [copper-64 labelled]  tissue uptake (male Nu/Nu nude mice, LNCaP xenograft, LNCaP tumour; 15 min): 13 ± 2 %ID/g
CSCC[C@H](NC(=O)[C@H](CC(C)C)NC(=O)[C@H](Cc1c[nH]cn1)NC(=O)CNC(=O)[C@@H](NC(=O)[C@H](C)NC(=O)[C@H](Cc1c[nH]c2ccccc12)NC(=O)[C@H](CCC(N)=O)NC(=O)CCOCCOCCOCCOCCNC(=O)CN1CCN(CC(=O)O)CCN(CC(=O)O)CCN(CC(=O)O)CC1)C(C)C)C(N)=O [indium-111 labelled]  tissue uptake (male Swiss nu/nu mice, PC-3 tumour, kidney; 10 pmol, 4 h): 1.5 ± 0.4 %ID/g
CC(C)C[C@@H](NC(=O)[C@@H](CCC(=O)O)NC(=O)[C@@H](CC(C)C)NC(=O)[C@@H](CC(C)C)NC(=O)[C@@H](CC(C)C)NC(=O)[C@H](NC(=O)[C@@H](CCC(=O)O)NC(=O)[C@H](NC(=O)[C@H]1CCCN1C(=O)[C@@H](Cc1ccccc1)NC(=O)[C@@H](CC(C)C)NC(=O)[C@@H](Cc1c[nH]c2ccccc12)NC(=O)[C@@H](CCC(=O)O)NC(=O)[C@@H](CC(C)C)NC(=O)[C@@H](Cc1ccc(O)cc1)NC(=O)[C@@H](CCCNC(=N)N)NC(=O)[C@@H](C)NC(=O)[C@@H](Cc1c[nH]c2ccccc12)NC(=O)[C@H]1CCCN1C(=O)[C@@H](CC(N)=O)NC(=O)[C@@H](CCC(N)=O)NC(=O)[C@@H](CCC(=O)O)NC(=O)[C@@H](CCC(=O)O)NC(=O)[C@@H](CSC1CC(=O)N(CCNC(=O)CN2CCN(CC(=O)O)CCN(CC(=O)O)CC2)C1=O)NC(=O)[C@@H](C)N)[C@H](C)O)[C@H](C)O)C(=O)O (stereo partly drawn) [fluorine-18 labelled]  tissue uptake (BALB/c mice, female, 4T1 orthotopic tumour, large intestine; 4 h): 0.91 ± 0.12 %ID/g
CCCC[C@H](NC(=O)CCCCCCCNC(=O)CN1CCN(CC(=O)O)CCN(CC(=O)O)CC1)C(=O)N[C@H]1CC(=O)NCCCC[C@@H](C(N)=O)NC(=O)[C@H](Cc2c[nH]c3ccccc23)NC(=O)[C@H](CCCNC(=N)N)NC(=O)[C@@H](Cc2ccccc2)NC(=O)[C@H](Cc2c[nH]cn2)NC1=O [copper-64 labelled]  tissue uptake (C57 mice, lung; 0.37 MBq, 2 h): 0.72 ± 0.17 %ID/g
CC(C)C[C@@H](NC(=O)[C@@H](CC(C)C)NC(=O)[C@@H](CC(=O)O)NC(=O)[C@@H](CC(C)C)NC(=O)[C@@H](CC(C)C)NC(=O)[C@@H](CC(C)C)NC(=O)[C@H](NC(=O)[C@@H](CC(=O)O)NC(=O)[C@H](NC(=O)[C@H]1CCCN1C(=O)[C@@H](Cc1ccccc1)NC(=O)[C@@H](CC(C)C)NC(=O)[C@@H](CC(C)C)NC(=O)[C@@H](CC(=O)O)NC(=O)[C@@H](CC(C)C)NC(=O)[C@@H](Cc1ccc(O)cc1)NC(=O)[C@@H](C)NC(=O)[C@@H](CCCNC(=N)N)NC(=O)[C@@H](Cc1c[nH]c2ccccc12)NC(=O)[C@H]1CCCN1C(=O)[C@@H](CC(N)=O)NC(=O)[C@@H](CCC(N)=O)NC(=O)[C@@H](CC(=O)O)NC(=O)[C@@H](CC(=O)O)NC(=O)[C@@H](CS)NC(=O)[C@@H](C)NC(=S)Nc1ccc(CC2CN(CC(=O)O)CCN(CC(=O)O)CCN2CC(=O)O)cc1)[C@H](C)O)[C@H](C)O)C(=O)N[C@H](Cc1c[nH]c2ccccc12)C(=O)O (stereo partly drawn) [copper-64 labelled]  tissue uptake (BALB/c mice, female, 4T1 orthotopic tumour, large intestine; 4 h): 7.45 ± 2.73 %ID/g
CCCC[C@H](NC(=O)CNC(=O)CNC(=O)CN1CCN(CC(=O)O)CCN(CC(=O)O)CC1)C(=O)N[C@H]1CC(=O)NCCCC[C@@H](C(N)=O)NC(=O)[C@H](Cc2c[nH]c3ccccc23)NC(=O)[C@H](CCCNC(=N)N)NC(=O)[C@@H](Cc2ccccc2)NC(=O)[C@H](Cc2c[nH]cn2)NC1=O [technetium-99m labelled]  tissue uptake (C57 mice, whole blood; 0.037 MBq, 4 h): 0.11 ± 0.06 %ID/g
CCCC[C@H](NC(=O)COCCOCCNC(=O)CN1CCN(CC(=O)O)CCN(CC(=O)O)CC1)C(=O)N[C@H]1CC(=O)NCCCC[C@@H](C(N)=O)NC(=O)[C@H](Cc2c[nH]c3ccccc23)NC(=O)[C@H](CCCNC(=N)N)NC(=O)[C@@H](Cc2ccccc2)NC(=O)[C@H](Cc2c[nH]cn2)NC1=O [copper-64 labelled]  tissue uptake (C57 mice, bone; 0.37 MBq, 4 h): 0.19 ± 0.13 %ID/g
N=C(N)NCCC[C@@H]1NC(=O)[C@H](CCCCNC(=O)CN2CCN(CC(=O)O)CCN(CC(=O)O)CCN(CC(=O)O)CC2)NC(=O)[C@@H](Cc2ccc(O)cc2)NC(=O)[C@H](CC(=O)O)NC(=O)CNC1=O [copper-64 labelled]  tissue uptake (64Cu microPET; female nude mice, U-87 MG xenograft, liver; 1 h): 4.19 ± 0.78 %ID/g

Some of these lines once more:
CCCC[C@H](NC(=O)CNC(=O)CNC(=O)CN1CCN(CC(=O)O)CCN(CC(=O)O)CC1)C(=O)N[C@H]1CC(=O)NCCCC[C@@H](C(N)=O)NC(=O)[C@H](Cc2c[nH]c3ccccc23)NC(=O)[C@H](CCCNC(=N)N)NC(=O)[C@@H](Cc2ccccc2)NC(=O)[C@H](Cc2c[nH]cn2)NC1=O [technetium-99m labelled]  tissue uptake (C57 mice, whole blood; 0.037 MBq, 4 h): 0.11 ± 0.06 %ID/g
